Measurements from different studies.
Lines come from different studies, so protocols differ.
B1: RB1CC1 1286-1594 (Homo sapiens, UniProt Q8TDY2); chain SLVAELQEKLQEEKAKFLEQLEEQEKRKNEEMQNVRTSLIAEQQTNFNTVLTREKMRKENIINDLSDKLKSTMQQQERDKDLIESLSEDRARLLEEKKKLEEEVSKLRSSSFVPSPYVATAPELYGACAPELPGESDRSAVETADEGRVDSAMETSMMSVQENIHMLSEEKQRIMLLERTLQLKEEENKRLNQRLMSQSMSSVSSRHSEKIAIRDFQVGDLVLIILDERHDNYVLFTVSPTLYFLHSESLPALDLKPGEGASGASRRPWVLGKVMEKEYCQAKKAQNRFKVPLGTKFYRVKAVSWNKKV
B2: Pard6b 254-371 (Mus musculus, UniProt Q9JK83); chain NVVRNSRTSGSSSQSTDNSLLGFPQQVEASFEPEDQDSDEDDIIIEDSGEPQQIPKATPAQSLESLTQIELSFESGQNGFSPPQDTSLVPVPGSLDTELESRAPDQKLLEEDGTIITL
B3: VIP1 165-341 (Arabidopsis thaliana, UniProt Q9MA75); sequence looked up; chain SILASVSGKDSGKKNMGMGGDRLAELALLDPKRAKRILANRQSAARSKERKIRYTGELERKVQTLQNEATTLSAQVTMLQRGTSELNTENKHLKMRLQALEQQAELRDALNEALRDELNRLKVVAGEIPQGNGNSYNRAQFSSQQSAMNQFGNKTNQQMSTNGQPSLPSYMDFTKRG
B4: ELM1 S605A/S604A/S519A/T463A/S424A/S422A/S324A (Saccharomyces cerevisiae, UniProt P32801); sequence looked up; chain MSPRQLIPTLIPEWAPLSQQSCIREDELDSPPITPTSQTSSFGSSFSQQKPTYSTIIGENIHTILDEIRPYVKKITVSDQDKKTINQYTLGVSAGSGQFGYVRKAYSSTLGKVVAVKIIPKKPWNAQQYSVNQVMRQIQLWKSKGKITTNMSGNEAMRLMNIEKCRWEIFAASRLRNNVHIVRLIECLDSPFSESIWIVTNWCSLGELQWKRDDDEDILPQWKKIVISNCSVSTFAKKILEDMTKGLEYLHSQGCIHRDIKPSNILLDEEEKVAKLSDFGSCIFTPQSLPFSDANFEDCFQRELNKIVGTPAFIAPELCHLGNAKRDFVTDGFKLDIWSLGVTLYCLLYNELPFFGENEFETYHKIIEVSLSSKINGNTLNDLVIKRLLEKDVTLRISIQDLVKVLSRDQPIDSRNHSQISASAVNPVRNEGPVRRFFGRLLTKKGKKKTSGKGKDKVLVSAASKVTPSIHIDEEPDKECFSTTVLRSSPDSSDYCSSLGEEAIQVTDFLDTFCRSNEALPNLTVNNDKQNSDMKTDRSESSSHSSLKIPTPIKAMIRLKSSPKENGNRTHINCSQDKPSSPLMDRTVGKRTVNNSGARKLAHAANILNFKAYINSEDSDIRETVEDVKTYLNFADNGQI
B5: ATG9 1-100 (Saccharomyces cerevisiae, UniProt Q12142); sequence looked up; chain MERDEYQLPNSHGKNTFLSRIFGLQSDEVNPSLNSQEMSNFPLPDIERGSSLLHSTNDSREDVDENDLRVPESDQGTSTEEEDEVDEEQVQAYAPQISDG
B6: PSMA3 (Homo sapiens, UniProt P25788); chain MSSIGTGYDLSASTFSPDGRVFQVEYAMKAVENSSTAIGIRCKDGVVFGVEKLVLSKLYEEGSNKRLFNVDRHVGMAVAGLLADARSLADIAREEASNFRSNFGYNIPLKHLADRVAMYVHAYTLYSAVRPFGCSFMLGSYSVNDGAQLYMIDPSGVSYGYWGCAIGKARQAAKTEIEKLQMKEMTCRDIVKEVAKIIYIVHDEVKDKAFELELSWVGELTNGRHEIVPKDIREEAEKYAKESLKEEDESDDDNM
B7: PSMD10 1-226 L209R (Homo sapiens, UniProt O75832); chain MEGCVSNLMVCNLAYSGKLEELKESILADKSLATRTDQDSRTALHWACSAGHTEIVEFLLQLGVPVNDKDDAGWSPLHIAASAGRDEIVKALLGKGAQVNAVNQNGCTPLHYAASKNRHEIAVMLLEGGANPDAKDHYEATAMHRAAAKGNLKMIHILLYYKASTNIQDTEGNTPLHLACDEERVEEAKLLVSQGASIYIENKEEKTPRQVAKGGLGLILKRMVEG
B8: ERRFI1 330-399 E370K (human, UniProt Q9UJM3); N-terminal FITC; sequence looked up; chain SRTPSPKSLPSYLNGVMPPTQSFAPDPKYVSSKALQRQNSKGSASKVPCILPIIENGKKVSSTHYYLLPE
B9: MED1 1-566 (Saccharomyces cerevisiae, UniProt Q12321); chain MVEGDSYVETLDSMIELFKDYKPGSITLENITRLCQTLGLESFTEELSNELSRLSTASKIIVIDVDYNKKQDRIQDVKLVLASNFDNFDYFNQRDGEHEKSNILLNSLTKYPDLKAFHNNLKFLYLLDAYSHIESDSTSHNNGSSDKSLDSSNASFNNQGKLDLFKYFTELSHYIRQCFQDNCCDFKVRTNLNDKFGIYILTQGINGKEVPLAKIYLEENKSDSQYRFYEYIYSQETKSWINESAENFSNGISLVMEIVANAKESNYTDLIWFPEDFISPELIIDKVTCSSNSSSSPPIIDLFSNNNYNSRIQLMNDFTTKLINIKKFDISNDNLDLISEILKWVQWSRIVLQNVFKLVSTPSSNSNSSELEPDYQAPFSTSTKDKNSSTSNTEPIPRSNRHGSVVEASRRRRSSTNKSKRPSITEAMMLKEEGLQQFNLHEILSEPAIEEENGDSIKEHSTTMDGANDLGFTASVSNQENAGTDIVMEDHGVLQGTSQNYGTATADDADIEMKDVSSKPSKPESSVLQLIVSEDHIILDTISECNLYDDVKCWSKFIEKFQDIVS
B10: TTC7B (Homo sapiens, UniProt Q86TV6); chain MATKKAGSRLETEIERCRSECQWERIPELVKQLSAKLIANDDMAELLLGESKLEQYLKEHPLRQGASPRGPKPQLTEVRKHLTAALDRGNLKSEFLQESNLIMAKLNYVEGDYKEALNIYARVGLDDLPLTAVPPYRLRVIAEAYATKGLCLEKLPISSSTSNLHVDREQDVITCYEKAGDIALLYLQEIERVILSNIQNRSPKPGPAPHDQELGFFLETGLQRAHVLYFKNGNLTRGVGRFRELLRAVETRTTQNLRMTIARQLAEILLRGMCEQSYWNPLEDPPCQSPLDDPLRKGANTKTYTLTRRARVYSGENIFCPQENTEEALLLLLISESMANRDAVLSRIPEHKSDRLISLQSASVVYDLLTIALGRRGQYEMLSECLERAMKFAFEEFHLWYQFALSLMAAGKSARAVKVLKECIRLKPDDATIPLLAAKLCMGSLHWLEEAEKFAKTVVDVGEKTSEFKAKGYLALGLTYSLQATDASLRGMQEVLQRKALLAFQRAHSLSPTDHQAAFYLALQLAISRQIPEALGYVRQALQLQGDDANSLHLLALLLSAQKHYHDALNIIDMALSEYPENFILLFSKVKLQSLCRGPDEALLTCKHMLQIWKSCYNLTNPSDSGRGSSLLDRTIADRRQLNTITLPDFSDPETGSVHATSVAASRVEQALSEVASSLQSSAPKQGPLHPWMTLAQIWLHAAEVYIGIGKPAEATACTQEAANLFPMSHNVLYMRGQIAELRGSMDEARRWYEEALAISPTHVKSMQRLALILHQLGRYSLAEKILRDAVQVNSTAHEVWNGLGEVLQAQGNDAAATECFLTALELEASSPAVPFTIIPRVL
B11: CCDC93 305-433 (Homo sapiens, UniProt Q567U6); chain SPEKLGTSQLHRRKVISLNKQIAQKTKHLEELRASHTSLQARYNEAKKTLTELKTYSEKLDKEQAALEKIESKADPSILQNLRALVAMNENLKSQEQEFKAHCREEMTRLQQEIENLKAERAPRGDEKT
B12: VANGL1 (Homo sapiens, UniProt Q8TAA9-1); sequence looked up; chain MDTESTYSGYSYYSSHSKKSHRQGERTRERHKSPRNKDGRGSEKSVTIQPPTGEPLLGNDSTRTEEVQDDNWGETTTAITGTSEHSISQEDIARISKDMEDSVGLDCKRYLGLTVASFLGLLVFLTPIAFILLPPILWRDELEPCGTICEGLFISMAFKLLILLIGTWALFFRKRRADMPRVFVFRALLLVLIFLFVVSYWLFYGVRILDSRDRNYQGIVQYAVSLVDALLFIHYLAIVLLELRQLQPMFTLQVVRSTDGESRFYSLGHLSIQRAALVVLENYYKDFTIYNPNLLTASKFRAAKHMAGLKVYNVDGPSNNATGQSRAMIAAAARRRDSSHNELYYEEAEHERRVKKRKARLVVAVEEAFIHIQRLQAEEQQKAPGEVMDPREAAQAIFPSMARALQKYLRITRQQNYHSMESILQHLAFCITNGMTPKAFLERYLSAGPTLQYDKDRWLSTQWRLVSDEAVTNGLRDGIVFVLKCLDFSLVVNVKKIPFIILSEEFIDPKSHKFVLRLQSETSV
B13: Ncoa1 260-369 (Mus musculus, UniProt P70365); sequence looked up; chain ESFMTKQDTTGKIISIDTSSLRAAGRTGWEDLVRKCIYAFFQPQGREPSYARQLFQEVMTRGTASSPSYRFILNDGTMLSAHTKCKLCYPQSPDMQPFIMGIHIIDREHS
B14: SIR4 1150-1358 (Saccharomyces cerevisiae, UniProt P11978); sequence looked up; chain KTLPEKKQFDSIFNSNKAKIIPGNGKHASENISLSFSRPASYGYFSVGKRVPIVEDRRVKQLDDITDSNTTEILTSVDVLGTHSQTGTQQSNMYTSTQKTELEIDNKDSVTECSKDMKEDGLSFVDIVLSKAASALDEKEKQLAVANEIIRSLSDEVMRNEIRITSLQGDLTFTKKCLENARSQISEKDAKINKLMEKDFQVNKEIKPY
B15: DOT1L 1-420 (Homo sapiens, UniProt Q8TEK3); chain MGEKLELRLKSPVGAEPAVYPWPLPVYDKHHDAAHEIIETIRWVCEEIPDLKLAMENYVLIDYDTKSFESMQRLCDKYNRAIDSIHQLWKGTTQPMKLNTRPSTGLLRHILQQVYNHSVTDPEKLNNYEPFSPEVYGETSFDLVAQMIDEIKMTDDDLFVDLGSGVGQVVLQVAAATNCKHHYGVEKADIPAKYAETMDREFRKWMKWYGKKHAEYTLERGDFLSEEWRERIANTSVIFVNNFAFGPEVDHQLKERFANMKEGGRIVSSKPFAPLNFRINSRNLSDIGTIMRVVELSPLKGSVSWTGKPVSYYLHTIDRTILENYFSSLKNPKLREEQEAARRRQQRESKSNAATPTKGPEGKVAGPADAPMDSGAEEEKAGAATVKKPSPSKARKKKLNKKGRKMAGRKRGRPKKMNTA
Sequence of UniProt P43354 (whole entry, unmodified, looked up): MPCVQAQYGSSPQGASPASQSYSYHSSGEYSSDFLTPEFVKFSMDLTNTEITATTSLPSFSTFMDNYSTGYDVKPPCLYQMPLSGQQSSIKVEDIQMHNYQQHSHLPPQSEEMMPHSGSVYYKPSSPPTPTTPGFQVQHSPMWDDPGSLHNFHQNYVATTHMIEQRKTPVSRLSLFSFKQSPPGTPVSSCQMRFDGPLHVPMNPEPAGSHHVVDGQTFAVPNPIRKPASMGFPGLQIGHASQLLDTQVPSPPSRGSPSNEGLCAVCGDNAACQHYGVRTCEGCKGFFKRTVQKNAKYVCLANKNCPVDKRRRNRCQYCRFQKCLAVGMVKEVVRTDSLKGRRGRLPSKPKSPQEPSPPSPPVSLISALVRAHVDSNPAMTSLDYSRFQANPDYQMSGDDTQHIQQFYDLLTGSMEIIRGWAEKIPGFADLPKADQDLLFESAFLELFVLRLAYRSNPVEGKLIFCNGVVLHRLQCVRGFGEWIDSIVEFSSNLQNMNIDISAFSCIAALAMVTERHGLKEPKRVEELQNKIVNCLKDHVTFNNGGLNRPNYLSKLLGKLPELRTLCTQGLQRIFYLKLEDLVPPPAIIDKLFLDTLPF
Sequence of UniProt Q12263 (whole entry, looked up): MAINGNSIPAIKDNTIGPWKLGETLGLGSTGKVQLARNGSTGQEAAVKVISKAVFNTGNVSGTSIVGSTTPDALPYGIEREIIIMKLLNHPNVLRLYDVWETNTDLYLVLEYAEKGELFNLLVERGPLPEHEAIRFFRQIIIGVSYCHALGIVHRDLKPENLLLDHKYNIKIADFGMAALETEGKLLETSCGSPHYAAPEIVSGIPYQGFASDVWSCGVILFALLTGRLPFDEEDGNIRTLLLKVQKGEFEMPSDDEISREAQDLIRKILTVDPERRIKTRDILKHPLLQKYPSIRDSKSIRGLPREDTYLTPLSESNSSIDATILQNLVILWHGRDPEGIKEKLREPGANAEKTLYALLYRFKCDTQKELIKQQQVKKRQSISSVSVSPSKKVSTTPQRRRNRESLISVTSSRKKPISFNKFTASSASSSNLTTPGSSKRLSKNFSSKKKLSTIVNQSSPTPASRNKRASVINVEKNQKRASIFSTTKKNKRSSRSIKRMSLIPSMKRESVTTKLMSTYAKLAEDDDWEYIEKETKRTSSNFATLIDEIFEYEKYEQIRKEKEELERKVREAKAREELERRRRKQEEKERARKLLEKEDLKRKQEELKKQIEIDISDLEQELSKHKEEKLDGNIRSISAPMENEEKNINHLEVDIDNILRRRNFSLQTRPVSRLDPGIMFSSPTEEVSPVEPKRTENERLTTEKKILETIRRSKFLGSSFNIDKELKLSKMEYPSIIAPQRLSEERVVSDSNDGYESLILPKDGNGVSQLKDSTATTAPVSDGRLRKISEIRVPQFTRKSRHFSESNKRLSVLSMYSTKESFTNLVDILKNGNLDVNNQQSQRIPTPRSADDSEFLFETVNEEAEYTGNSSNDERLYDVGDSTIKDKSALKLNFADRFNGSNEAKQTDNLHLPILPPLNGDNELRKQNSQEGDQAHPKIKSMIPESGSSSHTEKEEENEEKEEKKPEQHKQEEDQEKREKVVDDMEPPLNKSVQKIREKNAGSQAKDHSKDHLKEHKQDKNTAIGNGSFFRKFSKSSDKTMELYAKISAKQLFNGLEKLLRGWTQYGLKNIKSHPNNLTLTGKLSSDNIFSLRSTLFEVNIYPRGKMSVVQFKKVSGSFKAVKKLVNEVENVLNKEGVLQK
Sequence of UniProt P23804 (whole entry, looked up): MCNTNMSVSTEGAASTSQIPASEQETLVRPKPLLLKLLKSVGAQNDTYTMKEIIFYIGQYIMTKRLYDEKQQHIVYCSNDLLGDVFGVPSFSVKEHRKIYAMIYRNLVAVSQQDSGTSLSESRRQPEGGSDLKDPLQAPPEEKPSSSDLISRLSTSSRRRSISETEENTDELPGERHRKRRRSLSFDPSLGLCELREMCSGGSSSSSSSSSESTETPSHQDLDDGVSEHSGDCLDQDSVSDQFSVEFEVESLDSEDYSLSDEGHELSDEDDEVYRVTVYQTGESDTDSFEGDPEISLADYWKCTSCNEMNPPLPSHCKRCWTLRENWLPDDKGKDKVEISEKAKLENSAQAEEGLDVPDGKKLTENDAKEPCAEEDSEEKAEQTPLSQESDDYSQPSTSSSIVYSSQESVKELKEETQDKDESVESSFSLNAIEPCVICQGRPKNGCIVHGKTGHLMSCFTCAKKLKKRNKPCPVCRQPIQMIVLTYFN
Sequence of UniProt Q969U7 (whole entry, looked up): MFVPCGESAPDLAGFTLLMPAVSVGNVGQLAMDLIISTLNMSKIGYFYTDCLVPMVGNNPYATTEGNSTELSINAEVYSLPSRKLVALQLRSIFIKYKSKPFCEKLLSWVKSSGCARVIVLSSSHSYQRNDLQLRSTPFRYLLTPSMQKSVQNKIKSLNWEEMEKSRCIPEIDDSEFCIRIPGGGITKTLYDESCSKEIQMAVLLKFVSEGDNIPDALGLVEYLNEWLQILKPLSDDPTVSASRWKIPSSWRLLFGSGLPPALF
Sequence of UniProt P42356 (whole entry, looked up): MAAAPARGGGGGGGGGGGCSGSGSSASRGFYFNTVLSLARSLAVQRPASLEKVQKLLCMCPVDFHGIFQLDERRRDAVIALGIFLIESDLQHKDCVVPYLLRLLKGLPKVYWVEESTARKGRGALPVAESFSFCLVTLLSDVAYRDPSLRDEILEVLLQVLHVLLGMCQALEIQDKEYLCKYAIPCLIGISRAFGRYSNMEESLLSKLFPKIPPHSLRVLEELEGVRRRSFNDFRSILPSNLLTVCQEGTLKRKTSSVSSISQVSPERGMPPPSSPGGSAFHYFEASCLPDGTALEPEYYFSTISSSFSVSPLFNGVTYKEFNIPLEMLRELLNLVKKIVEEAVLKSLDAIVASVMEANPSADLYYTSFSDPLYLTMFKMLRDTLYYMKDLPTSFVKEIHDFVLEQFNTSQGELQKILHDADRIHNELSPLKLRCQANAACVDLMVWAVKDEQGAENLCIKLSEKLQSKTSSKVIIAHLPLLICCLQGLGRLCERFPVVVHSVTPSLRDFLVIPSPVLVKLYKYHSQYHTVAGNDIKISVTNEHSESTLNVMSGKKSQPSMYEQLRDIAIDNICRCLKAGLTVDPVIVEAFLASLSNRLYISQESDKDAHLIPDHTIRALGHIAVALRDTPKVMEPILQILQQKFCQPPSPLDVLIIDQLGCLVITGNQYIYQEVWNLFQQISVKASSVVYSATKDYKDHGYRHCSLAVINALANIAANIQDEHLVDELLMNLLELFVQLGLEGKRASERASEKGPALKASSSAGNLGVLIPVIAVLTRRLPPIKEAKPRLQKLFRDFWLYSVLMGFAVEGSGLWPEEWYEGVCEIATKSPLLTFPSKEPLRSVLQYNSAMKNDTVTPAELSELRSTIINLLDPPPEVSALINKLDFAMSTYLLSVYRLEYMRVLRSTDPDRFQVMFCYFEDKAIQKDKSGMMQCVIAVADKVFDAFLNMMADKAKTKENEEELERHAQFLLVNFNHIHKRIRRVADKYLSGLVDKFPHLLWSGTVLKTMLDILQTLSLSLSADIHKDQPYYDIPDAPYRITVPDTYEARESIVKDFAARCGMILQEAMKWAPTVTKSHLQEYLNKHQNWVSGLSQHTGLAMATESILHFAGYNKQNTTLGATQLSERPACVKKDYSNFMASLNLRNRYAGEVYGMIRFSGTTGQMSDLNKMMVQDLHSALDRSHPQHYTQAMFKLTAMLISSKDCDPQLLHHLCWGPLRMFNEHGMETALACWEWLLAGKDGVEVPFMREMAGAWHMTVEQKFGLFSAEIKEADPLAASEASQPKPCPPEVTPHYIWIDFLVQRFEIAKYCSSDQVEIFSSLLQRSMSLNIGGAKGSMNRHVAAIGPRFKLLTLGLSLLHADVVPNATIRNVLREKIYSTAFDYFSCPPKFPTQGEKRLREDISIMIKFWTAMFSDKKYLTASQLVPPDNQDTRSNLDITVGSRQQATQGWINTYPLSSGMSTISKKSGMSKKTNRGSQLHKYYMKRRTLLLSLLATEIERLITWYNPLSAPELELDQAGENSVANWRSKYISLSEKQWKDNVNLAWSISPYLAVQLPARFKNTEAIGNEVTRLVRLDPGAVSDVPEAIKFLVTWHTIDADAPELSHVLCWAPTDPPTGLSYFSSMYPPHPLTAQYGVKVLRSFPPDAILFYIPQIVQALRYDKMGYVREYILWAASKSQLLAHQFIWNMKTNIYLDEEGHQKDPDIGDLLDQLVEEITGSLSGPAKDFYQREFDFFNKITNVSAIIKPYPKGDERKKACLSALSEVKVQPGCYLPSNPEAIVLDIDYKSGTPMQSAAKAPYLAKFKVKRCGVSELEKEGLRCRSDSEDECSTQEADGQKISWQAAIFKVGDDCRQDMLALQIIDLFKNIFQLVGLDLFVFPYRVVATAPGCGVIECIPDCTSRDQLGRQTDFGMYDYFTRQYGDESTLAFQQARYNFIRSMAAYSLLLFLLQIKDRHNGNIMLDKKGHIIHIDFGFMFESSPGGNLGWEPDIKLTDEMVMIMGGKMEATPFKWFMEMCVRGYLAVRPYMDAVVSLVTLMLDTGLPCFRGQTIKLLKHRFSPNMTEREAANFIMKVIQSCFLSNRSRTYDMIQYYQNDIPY
Sequence of UniProt Q13137 (whole entry, looked up): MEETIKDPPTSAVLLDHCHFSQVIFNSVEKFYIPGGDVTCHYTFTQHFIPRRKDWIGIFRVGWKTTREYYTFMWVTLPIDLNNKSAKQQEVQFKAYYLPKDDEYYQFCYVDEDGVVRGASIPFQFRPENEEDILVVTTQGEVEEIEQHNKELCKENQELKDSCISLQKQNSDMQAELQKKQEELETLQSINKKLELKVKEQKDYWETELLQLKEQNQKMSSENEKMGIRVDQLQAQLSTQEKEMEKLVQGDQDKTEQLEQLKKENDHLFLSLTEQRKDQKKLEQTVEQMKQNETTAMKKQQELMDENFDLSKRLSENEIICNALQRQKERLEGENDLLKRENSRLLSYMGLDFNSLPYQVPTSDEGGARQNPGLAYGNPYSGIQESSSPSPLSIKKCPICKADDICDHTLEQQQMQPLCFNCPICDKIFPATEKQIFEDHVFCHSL

| Substance | tested on | test | system | setting | quantity | result |
| --- | --- | --- | --- | --- | --- | --- |
| B1 (RB1CC1 1286-1594) | CALCOCO2 1-316 (Homo sapiens, UniProt Q13137) | SEC |  |  | binding | binds |
| B2 (Pard6b 254-371) | LLGL2 13-978, dephosphorylated (Homo sapiens, UniProt Q6P1M3) | pull-down |  |  | binding | binds |
| B3 (VIP1 165-341) | FASS (Arabidopsis thaliana, UniProt Q9FEE2) | pull-down |  |  | binding | binds |
| B4 | GIN4 (Saccharomyces cerevisiae, UniProt Q12263) | pull-down |  |  | binding | binds |
| B5 (ATG9 1-100) | ATG23 Y16E (Saccharomyces cerevisiae, UniProt Q06671) | pull-down |  | 15 minutes, 4 °C | binding | binds |
| B6 (PSMA3) | PSMG2 (Homo sapiens, UniProt Q969U7) | cryo-EM |  |  | binding | binds |
| B7 (PSMD10 1-226 L209R) | Mdm2 (Mus musculus, UniProt P23804) | pull-down |  |  | binding | binds |
| B8 (ERRFI1 330-399 E370K) | EGFR 696-1022 (Homo sapiens, UniProt P00533) | fluorescence polarization |  | apparent | binding | binds |
| B9 (MED1 1-566) | NUT1 1-1132 (Saccharomyces cerevisiae, UniProt P53114) | cryo-EM |  |  | binding | binds |
| B10 (TTC7B) | PI4KA (Homo sapiens, UniProt P42356) | cryo-EM |  |  | binding | binds |
| B11 (CCDC93 305-433) | CCDC22 280-446 (Homo sapiens, UniProt O60826) | SEC |  |  | binding | binds |
| KESALRKQDLLLLFDPLLR (TACC3 to 568 550-568 S558D/Y560L/K562L (Homo sapiens, UniProt Q9Y6A5); sequence looked up) | CLTC 358-574 (Homo sapiens, UniProt Q00610) | peptide array | peptide |  | binding | binds |
| RASA2 (Homo sapiens, UniProt Q15283) | MAP3K4 (Homo sapiens, UniProt Q9Y6R4) | cross-linking MS |  | added: DSSO | cross-linked residues | K820 to K1342 |
| B12 (VANGL1) | PRICKLE1 (Homo sapiens, UniProt Q96MT3) | pull-down | Expi293F |  | binding | binds |
| B13 (Ncoa1 260-369) | NR4A2 1-165 F34R/L35R (Homo sapiens, UniProt P43354) | pull-down |  |  | binding | binds |
| B14 (SIR4 1150-1358) | SIR2 (Saccharomyces cerevisiae, UniProt P06700) | cross-linking mass spectrometry |  |  | binding | binds |
| B15 (DOT1L 1-420) | H3-3A fragment (Xenopus laevis) | cryo-EM |  | added: SAH | binding | binds |
| colistin | Escherichia coli | broth microdilution | clinical isolate RKI-No_592/16 |  | MIC | ≤ 0.5 µg/mL |

A few entries again:
| Substance | tested on | test | system | setting | quantity | result |
| --- | --- | --- | --- | --- | --- | --- |
| colistin | Escherichia coli | broth microdilution | clinical isolate RKI-No_592/16 |  | MIC | ≤ 0.5 µg/mL |
| B14 (SIR4 1150-1358) | SIR2 (Saccharomyces cerevisiae, UniProt P06700) | cross-linking mass spectrometry |  |  | binding | binds |
| B15 (DOT1L 1-420) | H3-3A fragment (Xenopus laevis) | cryo-EM |  | added: SAH | binding | binds |
